{"data": "Assay results collected from several papers", "note": "± gives the spread as reported."}
{"Compound": "CC(C)c1cccc(C(C)C)c1N1CCN(c2c(C(C)C)cccc2C(C)C)C1=[Se].[Cl][Ag]", "cell line": "LoVo MDR", "assay": "MTT", "scale": "relative to: LoVo MDR over LoVo", "measurement": "resistance factor", "result": 0.4}
{"Compound": "CC(=O)c1c(C)c2cnc(Nc3ccc(N4CCNCC4)cn3)nc2n(C2CCCC2)c1=O", "cell line": "CHO cells", "assay": "Western blot", "conditions": "concentration not given", "measurement": "S6 phosphorylation", "result": "no effect"}
{"Compound": "CO[C@@H]1[C@@H](O[C@@H]2O[C@H](C)[C@@H](O[C@H]3C[C@@](C)(O)[C@@H](O)[C@H](C)O3)[C@H](N(C)C)[C@H]2O)[C@@H](CC=O)C[C@@H](C)[C@@H](O[C@H]2CC[C@H](N(C)C)[C@@H](C)O2)/C=C/C=C/C[C@@H](C)OC(=O)C[C@H]1OC(=O)c1ccc(C(C)(C)C)cc1", "cell line": "GES-1 and HGC-27", "assay": "cell growth, CCK-8", "conditions": "72 h", "scale": "relative to: IC50 GES-1 over HGC-27", "measurement": "selectivity index", "result": 3.92}
{"Compound": "COc1cc(CNC(=O)C[C@H](C)CCC=C(C)C)ccc1OCc1cn(-c2cccc(C(F)(F)F)c2)nn1", "cell line": "MOLT-4 leukaemia cells", "assay": "SRB", "conditions": "10 µM, 48 h", "measurement": "growth percent", "result": "84.8%"}
{"Compound": "CC(C)(C)CCN1C[C@@H]2[C@@H](CNC(=O)c3cc(Cl)cc(Cl)c3)[C@@H]2C1", "cell line": "human sperm", "conditions": "4 h, added: 100 nM progesterone or PGE1", "measurement": "concentration abolishing hyperactivated motility", "result": "30 µM"}
{"Compound": "CC[C@H](C)[C@@H]1NC(=O)[C@H](C)NC(=O)[C@H]([C@@H](C)CC)NC(=O)[C@H](CCC(N)=O)NC(=O)[C@H](C)NC(=O)[C@H](CCCNC(=N)N)NC(=O)[C@H](C(C)C)NC(=O)[C@H](CC(C)C)NC(=O)[C@H](CCC(=O)O)NC(=O)[C@H](CCCNC(=N)N)NC(=O)CNC(=O)[C@@H](NC(=O)[C@H](CC(C)C)NC(=O)[C@H](CCCCN)NC(=O)[C@@H](NC(=O)[C@@H](NC(=O)[C@H](CCC(=O)O)NC(=O)[C@H](CCC(=O)O)NC(=O)[C@H](CCSC)NC(=O)[C@H](Cc2c[nH]c3ccccc23)NC(=O)[C@H](CO)NC(=O)[C@@H](N)CC(=O)O)C(C)C)[C@@H](C)CC)CSSC[C@@H]2NC(=O)[C@@H](NC(=O)[C@H](CCCCN)NC(=O)[C@H](CC(N)=O)NC(=O)[C@H](C)NC(=O)[C@H](CC(C)C)NC(=O)[C@H](C)NC(=O)[C@H](CO)NC(=O)[C@H](Cc3ccc(O)cc3)NC(=O)[C@H](CC(C)C)NC(=O)[C@@H](N)CCC(N)=O)C[Se][Se]C[C@H](NC(=O)CNC(=O)[C@H](C(C)C)NC(=O)[C@H](Cc3c[nH]cn3)NC2=O)C(=O)N[C@@H]([C@@H](C)O)C(=O)N[C@@H](CCCCN)C(=O)N[C@@H](CCCNC(=N)N)C(=O)N[C@@H](CO)C(=O)N[C@@H](CC(C)C)C(=O)N[C@@H](C)C(=O)N[C@@H](CCCNC(=N)N)C(=O)N[C@@H](Cc2ccccc2)C(=O)N[C@H](C(=O)O)CSSC[C@@H](C(=O)NCC(=O)N[C@@H](CCSC)C(=O)N[C@@H](CO)C(=O)N[C@H](C(=O)N[C@@H](Cc2c[nH]c3ccccc23)C(=O)N[C@@H](CO)C(=O)O)[C@@H](C)O)NC1=O", "cell line": "human endometriotic stromal cells", "assay": "qPCR, measured: PAI-1", "conditions": "33 ng/mL, 8 h", "scale": "relative to: untreated", "measurement": "mRNA level", "result": "decreased"}
{"Compound": "O=C(O)CCCOc1ccc(F)cc1-c1cc(-c2ccccc2C(F)(F)F)n(-c2ccccc2)n1", "cell line": "SH-SY5Y", "assay": "co-immunoprecipitation", "conditions": "concentration not given, added: rotenone", "measurement": "VDAC1-FABP5 interaction", "result": "inhibited"}
{"Compound": "CC(=O)OC[C@H]1O[C@@H](Sc2sc(C(=O)c3ccc(C)cc3)c(N)c2-c2nc3ccccc3s2)[C@H](OC(C)=O)[C@@H](OC(C)=O)[C@@H]1OC(C)=O", "cell line": "UACC-62", "assay": "SRB", "conditions": "10 µM, 48 h", "scale": "relative to: untreated", "measurement": "growth", "result": "55.9%"}
{"Compound": "CC1(C)[C@@H](O)CC[C@]2(C)[C@H]3C(=O)C=C4[C@@H]5C[C@@](C)(C(=O)O)CC[C@]5(C)CC[C@@]4(C)[C@]3(C)CC[C@@H]12", "cell line": "KARPAS-299", "assay": "cell growth or viability, MTT", "conditions": "2 µg/mL", "measurement": "inhibition", "result": "0%"}
{"Compound": "COc1ccc([C@@H]2CC(=O)c3c(O)cc(O[C@@H]4O[C@H](CO[C@@H]5O[C@@H](C)[C@H](O)[C@@H](O)[C@H]5O)[C@@H](O)[C@H](O)[C@H]4O)cc3O2)cc1O", "cell line": "A549", "assay": "Matrigel Transwell invasion", "conditions": "150 µg/mL, 24 h", "measurement": "invasion", "result": "39 ± 1.5%"}
{"Compound": "COCCNCC(=O)N(CCCCN)CC(=O)N(CC(=O)N(CC(=O)N(CCCCN)CC(=O)N[C@@H](CCCCN)C(=O)N[C@H](CCCCN)C(=O)N[C@@H](CCSC)C(=O)NCCCC[C@H](NC(=O)[C@H](CCSC)NC(=O)[C@@H](CCCCN)NC(=O)[C@H](CCCCN)NC(=O)CN(CCCCN)C(=O)CN(C(=O)CN(Cc1ccc2c(c1)OCO2)C(=O)CN(CCCCN)C(=O)CNCCOC)[C@H](C)c1ccccc1)C(N)=O)[C@H](C)c1ccccc1)Cc1ccc2c(c1)OCO2", "cell line": "H358 ALDH+ cancer stem cells", "conditions": "concentration not given", "scale": "relative to: ALDH+ cells over total H358", "measurement": "activity ratio", "result": "20 fold"}
{"Compound": "O=C(c1ccc2ccccc2c1)c1cn(-c2ccccc2)nc1C1=Nn2c(Cc3nnc4n3N=C(c3nn(-c5ccccc5)cc3C(=O)c3ccc5ccccc5c3)CS4)nnc2SC1", "cell line": "MCF7 cells", "assay": "RT-PCR, measured: p53", "conditions": "IC50, 48 h", "scale": "relative to: untreated", "measurement": "mRNA level", "result": "12.3 fold"}
{"Compound": "O=C1Nc2ccc(F)cc2C1=Cc1c(Cl)[nH]c2c1ccc1ccccc12", "cell line": "ovarian cancer subpanel of NCI-60", "conditions": "48 h", "measurement": "TGI", "result": "7.41 µM"}
{"Compound": "CCC(=C(c1ccc(Cl)cc1)c1ccc(OCCCN(C)C)cc1)c1ccc(OC)cc1", "cell line": "SR", "assay": "cell growth or viability", "measurement": "GI50", "result": "0.98 µM"}
{"Compound": "Cc1ccc2nc(-c3ccccc3)c(CN3CC[C@H](F)C3)n2c1", "cell line": "CRL8155", "assay": "cell growth or viability", "conditions": "48 h", "measurement": "EC50", "result": "> 50 µM"}
{"Compound": "COc1ccc(/C=C/C2=[N+]3C(=C(COC(C)=O)c4c(C)cc(/C=C/c5ccc(OC)cc5)n4[B-]3(F)F)C(C)=C2)cc1", "cell line": "RPE-1", "assay": "resazurin", "conditions": "added: 645 nm light", "scale": "relative to: dark over light IC50", "measurement": "phototoxicity index", "result": "35 ± 5"}
{"Compound": "CCC/C(=C\\C1=C(F)C(=O)c2ccccc2C1=O)C(=O)N(CC)CC", "cell line": "Pa03C cells", "conditions": "concentration not given, 6 h", "measurement": "NADPH/total NADP ratio", "result": "decreased"}
{"Compound": "N=C(N)NCCC[C@@H]1NC(=O)[C@H](CCCCN)NC(=O)[C@@H](Cc2ccc(O)cc2)NC(=O)[C@H](CC(=O)O)NC(=O)CNC1=O", "cell line": "U87", "assay": "cell growth, MTT", "conditions": "48 h", "measurement": "GI50", "result": "63 ± 2.5 µM"}
{"Compound": "O=S(=O)(CC(F)(F)F)Nc1ccc(Oc2ncccc2-c2ccnc(N[C@H]3CCCNC3)n2)c2ccccc12", "cell line": "INS1 cells with Dox-inducible IRE1α", "assay": "RNA-Seq", "conditions": "20 µM, added: 5 ng/mL doxycycline", "measurement": "Txnip mRNA level", "result": "inhibited"}
{"Compound": "CO[C@@H]1[C@@H](O[C@@H]2O[C@H](C)[C@@H](O[C@H]3C[C@@](C)(O)[C@@H](OC(=O)Nc4ccc(C)cc4)[C@H](C)O3)[C@H](N(C)C)[C@H]2O)[C@@H](CC=O)C[C@@H](C)[C@@H](O[C@H]2CC[C@H](N(C)C)[C@@H](C)O2)/C=C/C=C/C[C@@H](C)OC(=O)C[C@H]1O", "cell line": "GES-1 and HGC-27", "assay": "cell growth, CCK-8", "conditions": "72 h", "scale": "relative to: IC50 GES-1 over HGC-27", "measurement": "selectivity index", "result": 33.1}
{"Compound": "FC(F)(F)c1ccnc(-c2cc(C(F)(F)F)ccn2)c1.FC(F)(F)c1ccnc(-c2cc(C(F)(F)F)ccn2)c1.[Cl-].[Cl-].[Ru+2].c1csc(-c2ccc(-c3ccc(-c4nc5c6cccnc6c6ncccc6c5[nH]4)s3)s2)c1", "cell line": "SK-MEL-28", "assay": "cell viability", "conditions": "hypoxia 1% O2, added: visible light", "scale": "relative to: dark EC50 over light EC50", "measurement": "mean phototherapeutic index", "result": 300}
{"Compound": "COc1cc(CNC(=O)C[C@H](C)CCC=C(C)C)ccc1OCc1cn(-c2ccc(C#N)cc2)nn1", "cell line": "A549/ATCC", "assay": "SRB", "conditions": "10 µM, 48 h", "measurement": "growth", "result": "48.2%"}
{"Compound": "C=C(C)[C@@H]1CC[C@]2(C(=O)OCO/N=[N+](\\[O-])N3CCCC3)CC[C@]3(C)[C@H](CC[C@@H]4[C@@]5(C)CC[C@H](OC(C)=O)C(C)(C)[C@@H]5CC[C@]43C)[C@@H]12", "cell line": "B16-F10", "assay": "PI flow cytometry", "conditions": "1.0 µM", "measurement": "cells in G1 phase", "result": "52.1%"}
{"Compound": "NC(=O)C[C@H]1CCc2sc3ncnc(O[C@H]4CC[C@H](N5CCOCC5)CC4)c3c21", "cell line": "human white blood cells", "conditions": "concentration not given, 1 h pretreatment, added: LPS 1 µg/mL or CpG 0.5 µM", "measurement": "TNF production", "result": "inhibited"}
{"Compound": "CN[C@@H](C)C(=O)N[C@H]1CN(C(=O)Cc2ccccc2)CC[C@H]2CC[C@@H](C(=O)NCc3ccc(C(F)(F)F)cc3)N2C1=O", "cell line": "SK-OV-3", "assay": "apoptosis, annexin V/PI flow cytometry", "conditions": "24 h", "measurement": "minimum effective concentration", "result": "300 to 1000 nM"}
{"Compound": "CC(=O)N[C@H](C(=O)N[C@H](C(=O)N[C@@H](CCCNC(=N)N)C(=O)N1Cc2ccccc2C[C@H]1C(=O)N[C@@H](Cc1ccccc1)C(N)=O)C1CCCCC1)C(C)C", "cell line": "MBP-specific BC-3 T cells", "assay": "Bio-Plex multiplex, measured: IL-15", "conditions": "200 µg/mL, 24 h, added: MBP87-99 antigen", "measurement": "cytokine level", "result": "< 0.2 pg/mL"}
{"Compound": "COc1cc(CNC(=O)C[C@H](C)CCC=C(C)C)ccc1OCc1cn(-c2cccc([N+](=O)[O-])c2)nn1", "cell line": "MOLT-4 leukaemia cells", "assay": "SRB", "conditions": "10 µM, 48 h", "measurement": "growth percent", "result": "80.6%"}
{"Compound": "C=C(CC)C(=O)c1ccc(OCC(=O)NCCNC(=O)COc2ccc(C(=O)C(=C)CC)c(Cl)c2Cl)c(Cl)c1Cl", "cell line": "HEK293", "assay": "cell growth, CCK-8", "conditions": "72 h", "measurement": "IC10", "result": "~1.2 µM"}
{"Compound": "COc1cc(CNC(=O)C[C@H](C)CCC=C(C)C)ccc1O", "cell line": "A549/ATCC", "assay": "SRB", "conditions": "10 µM, 48 h", "measurement": "growth", "result": "96.4%"}
{"Compound": "CN(C)c1cc2ccccc2c(N)n1", "cell line": "LX-2", "assay": "qPCR", "conditions": "concentration not given, 6 h pre-treatment, added: TGF-β1 5 ng/mL for 12 h", "measurement": "COL1A1 mRNA level", "result": "decreased"}
{"note": "Some of these lines once more:"}
{"Compound": "CC(=O)N[C@H](C(=O)N[C@H](C(=O)N[C@@H](CCCNC(=N)N)C(=O)N1Cc2ccccc2C[C@H]1C(=O)N[C@@H](Cc1ccccc1)C(N)=O)C1CCCCC1)C(C)C", "cell line": "MBP-specific BC-3 T cells", "assay": "Bio-Plex multiplex, measured: IL-15", "conditions": "200 µg/mL, 24 h, added: MBP87-99 antigen", "measurement": "cytokine level", "result": "< 0.2 pg/mL"}
{"Compound": "COc1cc(CNC(=O)C[C@H](C)CCC=C(C)C)ccc1OCc1cn(-c2cccc([N+](=O)[O-])c2)nn1", "cell line": "MOLT-4 leukaemia cells", "assay": "SRB", "conditions": "10 µM, 48 h", "measurement": "growth percent", "result": "80.6%"}
{"Compound": "C=C(CC)C(=O)c1ccc(OCC(=O)NCCNC(=O)COc2ccc(C(=O)C(=C)CC)c(Cl)c2Cl)c(Cl)c1Cl", "cell line": "HEK293", "assay": "cell growth, CCK-8", "conditions": "72 h", "measurement": "IC10", "result": "~1.2 µM"}
